Measured values collected from several papers.
Protocols differ between the studies behind these lines. ± gives the spread as reported.
UniProt Q07741, sequence (whole entry, looked up): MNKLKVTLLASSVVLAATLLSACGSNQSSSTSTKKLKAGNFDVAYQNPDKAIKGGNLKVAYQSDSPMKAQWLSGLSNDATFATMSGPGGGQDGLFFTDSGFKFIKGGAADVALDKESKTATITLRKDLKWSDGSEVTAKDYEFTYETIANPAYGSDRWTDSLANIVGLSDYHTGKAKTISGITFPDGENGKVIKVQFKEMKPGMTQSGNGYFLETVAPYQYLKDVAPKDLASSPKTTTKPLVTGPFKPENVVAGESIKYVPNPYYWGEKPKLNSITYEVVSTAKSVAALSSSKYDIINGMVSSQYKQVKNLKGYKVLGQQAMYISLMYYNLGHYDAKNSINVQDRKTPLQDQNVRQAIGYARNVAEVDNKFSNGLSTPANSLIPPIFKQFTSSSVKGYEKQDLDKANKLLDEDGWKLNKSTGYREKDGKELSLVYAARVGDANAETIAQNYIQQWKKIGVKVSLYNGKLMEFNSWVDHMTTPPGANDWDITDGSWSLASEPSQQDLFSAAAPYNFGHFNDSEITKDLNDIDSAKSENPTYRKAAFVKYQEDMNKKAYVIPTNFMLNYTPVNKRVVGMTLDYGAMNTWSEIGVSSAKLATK
UniProt Q9H2X3, sequence (whole entry, looked up): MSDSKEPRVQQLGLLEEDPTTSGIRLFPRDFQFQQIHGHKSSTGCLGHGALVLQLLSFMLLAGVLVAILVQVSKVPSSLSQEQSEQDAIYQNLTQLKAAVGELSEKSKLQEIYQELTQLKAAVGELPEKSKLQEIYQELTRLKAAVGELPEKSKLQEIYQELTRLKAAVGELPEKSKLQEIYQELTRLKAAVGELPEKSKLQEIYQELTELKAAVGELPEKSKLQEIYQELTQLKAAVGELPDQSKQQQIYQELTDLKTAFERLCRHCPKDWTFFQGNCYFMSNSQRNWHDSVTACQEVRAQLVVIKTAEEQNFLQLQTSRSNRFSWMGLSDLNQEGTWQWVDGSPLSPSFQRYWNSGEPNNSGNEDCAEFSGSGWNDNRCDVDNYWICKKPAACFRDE
UniProt O49687, sequence (whole entry, looked up): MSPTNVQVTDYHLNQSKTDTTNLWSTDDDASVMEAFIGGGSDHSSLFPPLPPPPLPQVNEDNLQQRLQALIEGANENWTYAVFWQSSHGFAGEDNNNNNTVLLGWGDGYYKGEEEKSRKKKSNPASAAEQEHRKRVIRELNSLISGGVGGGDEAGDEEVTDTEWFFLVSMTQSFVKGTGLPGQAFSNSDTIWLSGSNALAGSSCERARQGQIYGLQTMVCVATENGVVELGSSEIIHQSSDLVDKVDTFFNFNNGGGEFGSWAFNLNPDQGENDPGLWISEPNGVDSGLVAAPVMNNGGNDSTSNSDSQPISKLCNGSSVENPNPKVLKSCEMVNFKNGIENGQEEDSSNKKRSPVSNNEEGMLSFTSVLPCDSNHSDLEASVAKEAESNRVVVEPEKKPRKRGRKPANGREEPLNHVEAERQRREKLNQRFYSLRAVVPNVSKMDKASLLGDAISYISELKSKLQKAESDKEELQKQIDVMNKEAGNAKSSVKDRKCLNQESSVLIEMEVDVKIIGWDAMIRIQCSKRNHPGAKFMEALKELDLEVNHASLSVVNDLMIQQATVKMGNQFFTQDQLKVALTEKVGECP
UniProt Q9Y294, sequence (whole entry, looked up): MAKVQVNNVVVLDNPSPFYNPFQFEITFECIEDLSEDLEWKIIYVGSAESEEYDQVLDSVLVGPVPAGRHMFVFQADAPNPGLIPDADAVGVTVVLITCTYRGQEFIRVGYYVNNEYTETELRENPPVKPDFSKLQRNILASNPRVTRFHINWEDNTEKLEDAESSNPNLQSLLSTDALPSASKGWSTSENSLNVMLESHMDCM
UniProt Q9UEF7, sequence (whole entry, looked up): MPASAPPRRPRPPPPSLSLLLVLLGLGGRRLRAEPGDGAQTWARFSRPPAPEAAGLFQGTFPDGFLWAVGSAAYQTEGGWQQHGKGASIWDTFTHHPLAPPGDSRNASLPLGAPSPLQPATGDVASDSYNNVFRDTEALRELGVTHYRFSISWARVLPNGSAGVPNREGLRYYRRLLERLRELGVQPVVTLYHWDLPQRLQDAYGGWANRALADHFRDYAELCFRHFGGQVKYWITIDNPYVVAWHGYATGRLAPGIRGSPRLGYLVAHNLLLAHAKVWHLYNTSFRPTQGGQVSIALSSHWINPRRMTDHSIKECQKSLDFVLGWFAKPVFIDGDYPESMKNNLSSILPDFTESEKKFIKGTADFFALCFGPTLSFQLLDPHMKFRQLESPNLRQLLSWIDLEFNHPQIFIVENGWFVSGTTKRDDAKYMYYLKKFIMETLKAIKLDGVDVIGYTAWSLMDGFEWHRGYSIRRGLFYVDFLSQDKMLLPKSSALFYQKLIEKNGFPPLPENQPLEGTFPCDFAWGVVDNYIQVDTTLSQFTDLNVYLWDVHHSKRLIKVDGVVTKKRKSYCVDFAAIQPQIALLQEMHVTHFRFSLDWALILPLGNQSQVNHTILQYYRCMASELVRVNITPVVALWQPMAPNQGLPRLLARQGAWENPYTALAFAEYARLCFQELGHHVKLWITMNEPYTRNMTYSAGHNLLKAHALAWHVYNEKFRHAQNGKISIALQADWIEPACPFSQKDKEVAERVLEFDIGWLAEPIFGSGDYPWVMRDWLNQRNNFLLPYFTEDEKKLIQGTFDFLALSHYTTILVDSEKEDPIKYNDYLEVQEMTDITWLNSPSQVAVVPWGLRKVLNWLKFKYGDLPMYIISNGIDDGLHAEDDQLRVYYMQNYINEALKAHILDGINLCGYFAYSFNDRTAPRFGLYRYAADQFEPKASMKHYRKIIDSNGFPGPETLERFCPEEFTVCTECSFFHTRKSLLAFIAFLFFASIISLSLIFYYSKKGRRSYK
UniProt Q13451, sequence (whole entry, looked up): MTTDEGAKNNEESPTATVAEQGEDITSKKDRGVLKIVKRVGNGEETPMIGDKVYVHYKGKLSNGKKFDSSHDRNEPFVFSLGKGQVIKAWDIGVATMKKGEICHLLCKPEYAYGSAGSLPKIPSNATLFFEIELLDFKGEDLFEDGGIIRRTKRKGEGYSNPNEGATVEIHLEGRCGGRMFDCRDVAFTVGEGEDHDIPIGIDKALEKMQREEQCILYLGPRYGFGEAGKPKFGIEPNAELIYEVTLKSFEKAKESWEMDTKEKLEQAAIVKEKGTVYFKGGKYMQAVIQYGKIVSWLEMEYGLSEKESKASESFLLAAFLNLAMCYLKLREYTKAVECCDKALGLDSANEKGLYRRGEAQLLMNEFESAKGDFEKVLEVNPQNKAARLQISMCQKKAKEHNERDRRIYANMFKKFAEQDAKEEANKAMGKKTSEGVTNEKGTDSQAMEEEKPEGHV
UniProt P00691, sequence (whole entry, looked up): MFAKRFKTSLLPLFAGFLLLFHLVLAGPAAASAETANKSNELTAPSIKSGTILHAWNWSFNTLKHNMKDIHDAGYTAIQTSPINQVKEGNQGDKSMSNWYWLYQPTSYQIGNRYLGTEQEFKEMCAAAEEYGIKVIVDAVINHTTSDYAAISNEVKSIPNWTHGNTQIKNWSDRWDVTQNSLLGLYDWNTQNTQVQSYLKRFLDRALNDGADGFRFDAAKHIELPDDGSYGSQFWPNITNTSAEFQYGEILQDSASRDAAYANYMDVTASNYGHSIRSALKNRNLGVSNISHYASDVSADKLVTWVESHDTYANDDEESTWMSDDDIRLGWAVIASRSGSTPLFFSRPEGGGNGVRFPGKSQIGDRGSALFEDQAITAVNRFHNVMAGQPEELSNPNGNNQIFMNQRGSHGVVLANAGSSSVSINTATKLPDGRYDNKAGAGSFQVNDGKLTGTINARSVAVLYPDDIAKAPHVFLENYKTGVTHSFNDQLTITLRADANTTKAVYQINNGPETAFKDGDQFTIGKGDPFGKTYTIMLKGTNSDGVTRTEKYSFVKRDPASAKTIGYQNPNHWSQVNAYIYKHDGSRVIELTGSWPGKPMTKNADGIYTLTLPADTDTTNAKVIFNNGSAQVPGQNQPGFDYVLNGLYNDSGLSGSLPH
UniProt P22455, sequence (whole entry, looked up): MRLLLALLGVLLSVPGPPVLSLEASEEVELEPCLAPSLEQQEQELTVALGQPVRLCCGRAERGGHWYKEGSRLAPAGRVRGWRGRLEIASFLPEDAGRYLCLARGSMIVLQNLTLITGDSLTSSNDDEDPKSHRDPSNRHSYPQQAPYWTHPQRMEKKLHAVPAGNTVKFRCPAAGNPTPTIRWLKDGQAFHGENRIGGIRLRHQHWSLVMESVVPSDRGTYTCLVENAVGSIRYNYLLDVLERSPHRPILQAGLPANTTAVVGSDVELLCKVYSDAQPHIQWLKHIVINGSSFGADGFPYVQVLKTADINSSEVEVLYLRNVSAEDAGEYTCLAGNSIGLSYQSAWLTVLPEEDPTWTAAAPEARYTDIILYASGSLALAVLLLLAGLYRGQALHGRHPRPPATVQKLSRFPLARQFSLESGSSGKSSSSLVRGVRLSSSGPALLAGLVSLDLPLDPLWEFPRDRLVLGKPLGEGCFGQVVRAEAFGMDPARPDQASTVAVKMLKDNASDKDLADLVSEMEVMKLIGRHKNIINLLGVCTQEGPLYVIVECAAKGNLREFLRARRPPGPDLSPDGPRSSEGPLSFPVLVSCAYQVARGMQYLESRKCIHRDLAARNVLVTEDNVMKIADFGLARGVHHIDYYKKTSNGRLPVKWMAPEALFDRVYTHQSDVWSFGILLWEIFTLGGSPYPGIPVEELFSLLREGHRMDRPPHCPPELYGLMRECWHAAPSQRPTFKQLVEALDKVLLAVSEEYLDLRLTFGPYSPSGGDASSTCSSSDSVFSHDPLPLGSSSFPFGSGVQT
UniProt P63104, sequence (whole entry, looked up): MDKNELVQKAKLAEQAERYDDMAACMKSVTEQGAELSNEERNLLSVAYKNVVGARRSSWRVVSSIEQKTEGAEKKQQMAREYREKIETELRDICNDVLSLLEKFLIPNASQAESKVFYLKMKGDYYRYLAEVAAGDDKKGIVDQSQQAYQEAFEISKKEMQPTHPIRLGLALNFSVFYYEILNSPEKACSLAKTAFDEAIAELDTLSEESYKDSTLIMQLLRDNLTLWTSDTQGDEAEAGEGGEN

| SMILES | target | test | setting | Kd |
| --- | --- | --- | --- | --- |
| NCc1cn([C@@H]2[C@@H](OCCn3cc(-c4cc(OCCOCCO)c(C#Cc5cc(OCCOCCO)c(C#Cc6cc(OCCOCCO)c(-c7cn(CCO[C@H]8O[C@H](CO)[C@@H](O)[C@H](O)[C@@H]8n8cc(CN)nn8)nn7)cc6OCCOCCO)cc5OCCOCCO)cc4OCCOCCO)nn3)O[C@H](CO)[C@@H](O)[C@@H]2O)nn1 | C-type lectin domain family 4 member M, extracellular domain (CLEC4M, Homo sapiens, UniProt Q9H2X3) |  |  | 31 ± 14 µM |
| CC(C)C[C@H](NC(=O)[C@@H]1CCCN1C(=O)[C@H](CCCCN)NC(=O)C[C@@H]1O[C@@H](C)[C@@H](O)[C@@H](O)[C@@H]1O)C(=O)N[C@@H](CCCCNC(=O)[C@H](CC(C)C)NC(=O)[C@@H]1CCCN1C(=O)[C@H](CCCCN)NC(=O)c1ccc(O[C@@H]2O[C@H](CO)[C@H](O)[C@H](O)[C@H]2O)cc1)C(=O)N[C@@H](Cc1ccccc1)C(=O)N[C@@H](CS)C(N)=O | lecA (Pseudomonas aeruginosa, UniProt Q05097) | binding, ITC | pH 7.5 | 7.8 µM |
| CC(C)C[C@H](NC(=O)[C@H](CCCNC(=N)N)NC(=O)[C@H](CCC(=O)O)NC(=O)[C@H](CCCCN)NC(=O)[C@H](CCCNC(=N)N)NC(=O)[C@H](CCCCN)NC(=O)[C@H](CCC(=O)O)NC(=O)[C@H](CC(C)C)NC(=O)[C@H](Cc1ccccc1)NC(=O)[C@H](CCCNC(=N)N)NC(=O)[C@H](C)NC(=O)[C@H](CC(C)C)NC(=O)[C@H](CO)NC(=O)[C@H](C)NC(=O)[C@H](CCCCN)NC(=O)[C@H](CCCNC(=N)N)NC(=O)[C@H](C)NC(=O)[C@H](CCC(N)=O)NC(=O)[C@@H]1CCCN1C(=O)[C@@H](NC(=O)[C@H](CO)NC(=O)c1ccc2c(c1)C(=O)OC21c2ccc(N(C)C)cc2Oc2cc(N(C)C)ccc21)C(C)C)C(=O)O | Transcription factor MYC4 (MYC4, Arabidopsis thaliana, UniProt O49687) | binding, fluorescence anisotropy | pH 8.0, MYC4 residues 55-253 | 11 ± 3.7 µM |
| CC(C)C[C@H](NC(=O)[C@@H]1CCCN1C(=O)[C@H](CC(=O)O)NC(=O)[C@H](CO)NC(=O)[C@H](C)NC(=O)c1cc(-c2ccccc2)nc2ccccc12)C(=O)NCC(=O)N[C@H](C(=O)N[C@H](C(=O)N[C@@H](CCCNC(=N)N)C(=O)NCC(=O)N[C@@H](CCCNC(=N)N)C(=O)N[C@@H](C)C(=O)N[C@@H](CCCNC(=N)N)C(=O)N[C@H](CCCNC(=O)c1ccc2c(c1)C(=O)OC21c2ccc(N(C)C)cc2Oc2cc(N(C)C)ccc21)C(N)=O)C(C)C)C(C)C | Klotho (Kl, Mus musculus, UniProt O35082) | BLI competition binding | 30 min, 30 °C, with: 100 nM mouse Klotho, immobilized Pep-10-Biotin | 0.0013 ± 0.0004 µM |
| N=C(N)NCCC[C@H](NC(=O)[C@H](Cc1ccccc1)NC(=O)[C@@H]1CCCN1C(=O)[C@H](CO)NC(=O)[C@H](Cc1ccccc1)NC(=O)CNC(=O)[C@@H]1CCCN1C(=O)[C@@H]1CCCN1C(=O)[C@@H](N)CCCNC(=N)N)C(=O)N[C@@H](CCCCNS(=O)(=O)c1ccc(C2=c3cc4c5c(c3Oc3c2cc2c6c3CCCN6CCC2)CCC[N+]=5CCC4)c(S(=O)(=O)[O-])c1)C(=O)O | Oligopeptide-binding protein OppA (oppA, Lactococcus lactis subsp. lactis, UniProt Q07741) | binding, fluorescence anisotropy | pH 6, 37 °C, with: dye-labelled peptide | 18 ± 0.7 µM |
| COC(=O)[C@H](CSC/C=C(\C)CC/C=C(\C)CC/C=C(\C)CCC=C(C)C)NC(=O)[C@H](COP(=O)(O)O)NC(=O)[C@H](CCCCN)NC(=O)[C@H](CCCCN)NC(=O)[C@H](CCCCN)NC(=O)[C@@H]1CCCN1C(=O)[C@H](CCCCN)NC(=O)[C@H](CCCCN)NC(=O)[C@H](CCCCN)NC(=O)[C@@H](N)CCC(=O)O | YWHAZ (Homo sapiens, UniProt P63104) | binding, fluorescence polarization | pH 7.5, 25 °C | 1.76 µM |
| CC(C)[C@H](NC(=O)[C@H](CCC(=O)O)NC(=O)[C@H](CCC(N)=O)NC(=O)[C@H](CO)NC(=O)[C@H](Cc1c[nH]cn1)NC(=O)[C@H](CCCNC(=N)N)NC(=O)[C@H](CC(N)=O)NC(=O)[C@H](Cc1c[nH]cn1)NC(=O)[C@@H](NC(=O)[C@@H](N)CCCCN)[C@@H](C)O)C(=O)N1CCC[C@H]1C(=O)N[C@@H](C)C(=O)O | Small ubiquitin-related modifier 1 (Homo sapiens, UniProt P63165) | binding, BLI |  | 0.837 µM |
| CSCC[C@H](NC(=O)[C@@H]1CCCN1C(=O)CCOCCOCCOCCOCCNC(=O)CCCC[C@@H]1SC[C@@H]2NC(=O)N[C@@H]21)C(=O)N[C@@H](C)C(=O)N[C@@H](CO)C(=O)N[C@@H](CC(=O)O)C(=O)N1CCC[C@H]1C(=O)N[C@@H](CC(C)C)C(=O)NCC(=O)N[C@H](C(=O)N[C@H](C(=O)N[C@@H](CCCNC(=N)N)C(=O)N1CCC[C@H]1C(=O)N[C@@H](CCCNC(=N)N)C(=O)N[C@@H](C)C(=O)N[C@@H](CCCNC(=N)N)C(=O)N[C@@H](C)C(N)=O)C(C)C)C(C)C | Klotho (Homo sapiens, UniProt Q9UEF7) | binding, BLI |  | 3 µM |
| O=c1c(Br)c2oc3c(CN(Cc4ccccn4)Cc4ccccn4)c(O)ccc3nc-2c2ccccc12 | zinc ion | fluorescence titration | pH 7.0, 25 °C | < 1e-06 µM |
| CC(C)C[C@H](NC(=O)[C@H](Cc1c[nH]cn1)NC(=O)[C@H](CCC(=O)O)NC(=O)[C@H](Cc1c[nH]c2ccccc12)NC(=O)[C@@H](NC(=O)[C@H](Cc1ccc(O)cc1)NC(=O)[C@@H](NC(=O)[C@H](C)NC(=O)[C@H](CC(=O)O)NC(=O)CCNC(=O)CCNC(=O)CCCC[C@@H]1SC[C@@H]2NC(=O)N[C@@H]21)[C@@H](C)O)[C@@H](C)O)C(=O)N[C@@H](C)C(=O)N[C@@H](Cc1c[nH]c2ccccc12)C(=O)N1CCC[C@H]1C(N)=O | Gamma-aminobutyric acid receptor-associated protein (Homo sapiens, UniProt O95166) | binding, BLI |  | 0.39 µM |
| N=C(N)Nc1ccc(-c2nc3ccc(-c4ccc5nc(-c6ccc(NC(=N)N)cc6)[nH]c5c4)cc3[nH]2)cc1 | r(G4C2)8 RNA | binding, microscale thermophoresis |  | > 5 µM |
| CC[C@H](C)[C@H](NC(=O)[C@H](CCCNC(=N)N)NC(=O)[C@H](CCCNC(=N)N)NC(=O)[C@H](C)NC(=O)[C@H](CC(C)C)NC(=O)[C@H](CCCNC(=N)N)NC(=O)[C@H](C)NC(=O)[C@H](Cc1c[nH]c2ccccc12)NC(=O)[C@H](CCCCN)NC(=O)[C@H](CCC(=O)O)NC(C)=O)C(=O)N[C@@H](C)C(=O)NCC(N)=O | Histone chaperone ASF1A (Homo sapiens, UniProt Q9Y294) | binding, ITC | pH 7.5 | 0.44 µM |
| CSCC[C@H](NC(C)=O)C(=O)N[C@@H](CO)C(=O)N[C@@H](CO)C(=O)N1CCC[C@H]1C(=O)N1CCC[C@H]1C(=O)N[C@H]1CSCc2cc3cc(c2)CSC[C@@H](C(=O)N[C@@H](CC(C)C)C(=O)N[C@@H](CCCNC(=N)N)C(=O)N[C@@H](CCCNC(=N)N)C(=O)N[C@@H](Cc2ccc(O)cc2)C(=O)NCC(=O)N[C@@H](CO)C(=O)NCC(=O)N[C@@H](CO)C(=O)NCC(=O)N[C@@H](CO)C(=O)N[C@@H](CC(=O)O)C(=O)N[C@@H](Cc2ccc(O)cc2)C(=O)N[C@@H](CCCCN)C(=O)N[C@@H](CC(=O)O)C(=O)N[C@@H](CC(=O)O)C(=O)N[C@@H](CC(=O)O)C(=O)N[C@@H](CC(=O)O)C(=O)N[C@@H](CCCCN)C(N)=O)NC(=O)[C@H](CSC3)NC(=O)CNC(=O)[C@H](CC(C)C)NC(=O)[C@H]([C@@H](C)O)NC1=O | FGFR4 (Homo sapiens, UniProt P22455) | binding, BLI |  | 0.0917 µM |
| CC(C)P(=S)(NP(=S)(C(C)C)C(C)C)C(C)C | Alpha-amylase (Bacillus subtilis, UniProt P00691) | fluorescence quenching | 298 K | 1340 µM |
| CC(=O)NC1C(OC2C(O)C(CO)OC(O)C2OC2OC(C)C(O)C(O)C2O)OC(CO)C(O)C1O (stereo not drawn) | sly (Streptococcus suis, UniProt Q55996) | binding |  | 0.0087 µM |
| CSCC[C@H](NC(=O)[C@H](CO)NC(=O)[C@H](CC(C)C)NC(=O)[C@H](CC(=O)O)NC(=O)[C@H](CC(C)C)NC(=O)[C@H](Cc1ccc(OP(=O)(O)O)cc1)NC(=O)[C@H](CCC(=O)O)NC(=O)[C@H](CCC(N)=O)NC(=O)[C@H](CC(N)=O)NC(=O)[C@H](CO)NC(=O)[C@@H](N)[C@@H](C)O)C(N)=O | 1-phosphatidylinositol 4,5-bisphosphate phosphodiesterase gamma-1, N-terminal SH2 domain (Rattus norvegicus, UniProt P10686) | N-SH2 domain binding, isothermal titration calorimetry | 25 °C | 0.433 ± 0.213 µM |
| CC[C@H](C)[C@H](NC(=O)[C@@H](NC(=O)[C@H](Cc1c[nH]c2ccccc12)NC(=O)[C@H](CCC(=O)O)NC(=O)[C@H](CO)NC(=S)Nc1ccc2c(c1)C(=O)OC21c2ccc(O)cc2Oc2cc(O)ccc21)C(C)C)C(=O)N[C@H](C(=O)N[C@H](C(=O)N1CCC[C@H]1C(=O)N[C@@H](Cc1ccccc1)C(=O)N[C@@H](C)C(=O)N[C@H](C(=O)N[C@@H](CC(N)=O)C(=O)N[C@@H](CC(C)C)C(=O)O)[C@@H](C)O)[C@@H](C)CC)C(C)C | Rgg transcriptional regulator (Streptococcus pneumoniae, UniProt A0A0E7KI02) | binder, fluorescence polarization | 20 min, pH 7.4, 20 °C, fluorescein-labelled peptide | 4.3 ± 0.2 µM |
| CC[C@H](C)[C@H](NC(=O)[C@H](CCCNC(=N)N)NC(=O)[C@H](CO)NC(=O)[C@@H](NC(=O)[C@H](CC(=O)O)NC(=O)[C@H](CC(=O)O)NC(=O)CCCCCNC(=O)c1ccc2c(c1)C(=O)OC21c2ccc(O)cc2Oc2cc(O)ccc21)[C@@H](C)O)C(=O)N[C@@H](CCC(=O)O)C(=O)N[C@@H](CCC(=O)O)C(=O)N[C@H](C(=O)N[C@@H](CC(=O)O)C(=O)O)C(C)C | FKBP5 (Homo sapiens, UniProt Q13451) | binding, FP | pH 7.4 | > 25 µM |

Repeated from above:
| SMILES | target | test | setting | Kd |
| --- | --- | --- | --- | --- |
| CC(C)[C@H](NC(=O)[C@H](CCC(=O)O)NC(=O)[C@H](CCC(N)=O)NC(=O)[C@H](CO)NC(=O)[C@H](Cc1c[nH]cn1)NC(=O)[C@H](CCCNC(=N)N)NC(=O)[C@H](CC(N)=O)NC(=O)[C@H](Cc1c[nH]cn1)NC(=O)[C@@H](NC(=O)[C@@H](N)CCCCN)[C@@H](C)O)C(=O)N1CCC[C@H]1C(=O)N[C@@H](C)C(=O)O | Small ubiquitin-related modifier 1 (Homo sapiens, UniProt P63165) | binding, BLI |  | 0.837 µM |
| O=c1c(Br)c2oc3c(CN(Cc4ccccn4)Cc4ccccn4)c(O)ccc3nc-2c2ccccc12 | zinc ion | fluorescence titration | pH 7.0, 25 °C | < 1e-06 µM |
